# Published values gathered from unrelated publications.
# Parts stem from different laboratories: compare values within a part only.
# Chain of UniProt Q8IU85 (whole entry, looked up): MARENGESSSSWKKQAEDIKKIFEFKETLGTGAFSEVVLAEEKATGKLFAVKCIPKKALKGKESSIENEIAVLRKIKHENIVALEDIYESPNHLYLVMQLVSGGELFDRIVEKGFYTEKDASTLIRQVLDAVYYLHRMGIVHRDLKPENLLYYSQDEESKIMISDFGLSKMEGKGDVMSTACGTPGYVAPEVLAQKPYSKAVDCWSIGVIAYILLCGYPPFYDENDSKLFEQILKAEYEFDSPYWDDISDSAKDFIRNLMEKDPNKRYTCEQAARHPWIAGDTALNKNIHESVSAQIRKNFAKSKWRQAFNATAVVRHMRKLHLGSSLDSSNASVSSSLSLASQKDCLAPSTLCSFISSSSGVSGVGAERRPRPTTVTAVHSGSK
# Chain of UniProt Q9H2G2 (whole entry, looked up): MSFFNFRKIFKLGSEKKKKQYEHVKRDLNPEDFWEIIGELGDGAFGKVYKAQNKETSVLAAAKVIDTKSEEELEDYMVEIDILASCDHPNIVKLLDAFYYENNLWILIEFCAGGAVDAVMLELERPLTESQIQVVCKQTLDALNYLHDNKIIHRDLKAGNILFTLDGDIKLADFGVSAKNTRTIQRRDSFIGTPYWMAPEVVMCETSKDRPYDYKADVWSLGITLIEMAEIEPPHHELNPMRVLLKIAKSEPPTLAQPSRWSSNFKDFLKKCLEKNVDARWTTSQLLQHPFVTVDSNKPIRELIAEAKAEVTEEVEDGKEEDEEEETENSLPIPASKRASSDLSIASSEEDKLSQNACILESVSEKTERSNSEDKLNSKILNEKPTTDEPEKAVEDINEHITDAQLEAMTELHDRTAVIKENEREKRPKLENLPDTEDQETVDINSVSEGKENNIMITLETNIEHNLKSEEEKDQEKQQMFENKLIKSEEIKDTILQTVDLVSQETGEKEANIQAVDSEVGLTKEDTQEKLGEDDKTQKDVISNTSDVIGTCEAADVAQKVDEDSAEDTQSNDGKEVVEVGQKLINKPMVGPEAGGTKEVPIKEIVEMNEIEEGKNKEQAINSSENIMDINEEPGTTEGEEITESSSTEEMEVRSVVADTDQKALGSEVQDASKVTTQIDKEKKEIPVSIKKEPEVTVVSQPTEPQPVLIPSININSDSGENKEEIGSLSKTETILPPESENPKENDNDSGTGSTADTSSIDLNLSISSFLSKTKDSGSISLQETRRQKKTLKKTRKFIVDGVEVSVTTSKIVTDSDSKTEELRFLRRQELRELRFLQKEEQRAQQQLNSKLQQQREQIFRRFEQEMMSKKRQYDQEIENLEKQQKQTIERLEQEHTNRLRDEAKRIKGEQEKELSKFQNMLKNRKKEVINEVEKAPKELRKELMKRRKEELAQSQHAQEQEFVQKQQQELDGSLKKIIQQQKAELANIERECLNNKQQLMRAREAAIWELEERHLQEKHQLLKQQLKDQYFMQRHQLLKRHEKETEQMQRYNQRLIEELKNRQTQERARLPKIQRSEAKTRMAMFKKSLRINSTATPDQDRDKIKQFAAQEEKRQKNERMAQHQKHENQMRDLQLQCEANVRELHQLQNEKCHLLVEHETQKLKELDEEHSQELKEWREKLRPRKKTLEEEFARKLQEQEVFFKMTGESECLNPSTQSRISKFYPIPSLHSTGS
# Chain of UniProt Q8TBX8 (whole entry, looked up): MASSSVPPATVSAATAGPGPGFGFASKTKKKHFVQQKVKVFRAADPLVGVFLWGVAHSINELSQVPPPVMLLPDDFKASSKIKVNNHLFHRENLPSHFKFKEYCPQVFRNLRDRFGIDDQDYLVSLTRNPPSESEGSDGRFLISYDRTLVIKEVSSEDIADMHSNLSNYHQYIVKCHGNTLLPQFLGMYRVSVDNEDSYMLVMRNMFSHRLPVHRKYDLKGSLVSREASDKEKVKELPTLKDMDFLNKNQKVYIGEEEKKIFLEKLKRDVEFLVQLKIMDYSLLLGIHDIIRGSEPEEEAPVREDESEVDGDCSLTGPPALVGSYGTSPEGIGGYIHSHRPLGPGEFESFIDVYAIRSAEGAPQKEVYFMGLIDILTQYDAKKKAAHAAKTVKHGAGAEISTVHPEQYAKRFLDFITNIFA
# Chain of UniProt Q16288 (whole entry, looked up): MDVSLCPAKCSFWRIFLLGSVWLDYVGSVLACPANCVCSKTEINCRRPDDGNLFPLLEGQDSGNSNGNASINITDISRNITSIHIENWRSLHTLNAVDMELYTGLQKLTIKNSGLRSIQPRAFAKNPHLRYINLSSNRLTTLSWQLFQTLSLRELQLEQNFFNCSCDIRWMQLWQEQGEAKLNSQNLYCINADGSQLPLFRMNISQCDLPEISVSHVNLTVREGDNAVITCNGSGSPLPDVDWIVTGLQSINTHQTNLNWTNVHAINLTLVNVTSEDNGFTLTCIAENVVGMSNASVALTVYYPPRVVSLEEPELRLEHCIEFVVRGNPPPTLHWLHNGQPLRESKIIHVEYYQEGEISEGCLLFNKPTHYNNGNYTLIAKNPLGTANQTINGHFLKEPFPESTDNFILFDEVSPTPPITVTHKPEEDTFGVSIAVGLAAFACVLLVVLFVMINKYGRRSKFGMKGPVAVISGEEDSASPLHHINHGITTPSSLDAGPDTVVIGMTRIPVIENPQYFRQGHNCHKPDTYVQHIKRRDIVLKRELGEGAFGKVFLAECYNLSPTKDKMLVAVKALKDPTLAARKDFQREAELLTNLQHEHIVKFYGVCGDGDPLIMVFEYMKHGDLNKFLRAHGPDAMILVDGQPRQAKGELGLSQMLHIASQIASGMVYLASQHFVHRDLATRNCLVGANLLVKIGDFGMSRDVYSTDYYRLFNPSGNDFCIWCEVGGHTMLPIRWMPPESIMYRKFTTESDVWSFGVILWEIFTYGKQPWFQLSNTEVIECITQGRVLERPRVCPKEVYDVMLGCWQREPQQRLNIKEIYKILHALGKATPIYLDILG
# Chain of UniProt Q92772 (whole entry, looked up): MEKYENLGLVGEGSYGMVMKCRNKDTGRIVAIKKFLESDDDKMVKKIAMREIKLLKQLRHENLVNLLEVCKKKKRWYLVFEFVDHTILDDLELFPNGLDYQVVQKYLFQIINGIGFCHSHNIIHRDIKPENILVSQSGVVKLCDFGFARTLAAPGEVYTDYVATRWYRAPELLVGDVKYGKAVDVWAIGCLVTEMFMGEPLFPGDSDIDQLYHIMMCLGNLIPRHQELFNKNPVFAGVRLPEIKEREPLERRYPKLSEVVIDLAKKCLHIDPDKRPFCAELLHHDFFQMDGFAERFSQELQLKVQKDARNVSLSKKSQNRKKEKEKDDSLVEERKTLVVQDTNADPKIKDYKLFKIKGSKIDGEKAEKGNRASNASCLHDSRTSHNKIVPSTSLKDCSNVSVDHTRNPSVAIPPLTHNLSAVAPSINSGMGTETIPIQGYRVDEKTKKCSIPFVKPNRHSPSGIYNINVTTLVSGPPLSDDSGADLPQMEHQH

# Study 1
# Structure (SMILES): CN([C@@H]1CCc2c(CC(=O)O)c3ccccc3n2C1)S(=O)(=O)c1ccc(F)cc1
# Method: competition with immobilised ligand
# Concentration: 1 µM
target,observed,remaining binding
"Tyrosine-protein kinase ABL1, non-phosphorylated (ABL1, Homo sapiens, UniProt P00519, F317I)",binding,79%
"Cyclin-dependent kinase-like 2 (CDKL2, Homo sapiens, UniProt Q92772)",cell-free assay,100%
"Atypical kinase COQ8A, mitochondrial (COQ8A, Homo sapiens, UniProt Q8NI60)",cell-free assay,100%
"Calcium/calmodulin-dependent protein kinase type 1D (CAMK1D, Homo sapiens, UniProt Q8IU85)",cell-free assay,100%
"NT-3 growth factor receptor (NTRK3, Homo sapiens, UniProt Q16288)",cell-free assay,100%
"Transient receptor potential cation channel subfamily M member 6 (TRPM6, Homo sapiens, UniProt Q9BX84)",cell-free assay,85%
"STE20-like serine/threonine-protein kinase (SLK, Homo sapiens, UniProt Q9H2G2)",cell-free assay,100%
"Phosphatidylinositol 5-phosphate 4-kinase type-2 gamma (PIP4K2C, Homo sapiens, UniProt Q8TBX8)",cell-free assay,100%
"Activin receptor type-1-like (ACVRL1, Homo sapiens, UniProt P37023)",cell-free assay,88%
"Serine/threonine-protein kinase Nek2 (NEK2, Homo sapiens, UniProt P51955)",cell-free assay,100%

# Study 2
# Compound: COc1ccc(-c2c(Nc3ccccn3)[nH]c3c(C4=CCCCC4)c(-c4ccccc4)nn3c2=O)cc1
# Medium: plasma
# Route: oral
method,host,dose,time,setting,"plasma concentration, geometric mean"
,human patients,400 mg once daily,0 h,cycle 1,2370 ng/mL
,cancer patients,100 mg,2 h post-dose,single dose,764 ng/mL
,human patients,150 mg once daily,6 h,cycle 1,4310 ng/mL
,cancer patients,200 mg,48 h post-dose,single dose,457 ng/mL
LC-MS/MS,human,50 mg once daily,24 h,cycle 1,1140 ng/mL
LC-MS/MS,human,200 mg twice daily,0 h,,11300 ng/mL
,cancer patients,150 mg,24 h post-dose,single dose,694 ng/mL

# Study 3
# Host: mouse
# Medium: microsomes or S9
# Concentration: 2 µM
# Time: 0.5 h
Compound,remaining compound [%]
CNC(=O)Nc1cc(S(=O)(=O)C(C)C(=O)O)c(Cl)cc1F (stereo not shown),89.8
CCN1C(=O)C2(CC(=O)Nc3c2cnn3-c2ccccc2Cl)c2cccc(C)c21 (stereo not shown),0
Clc1ccc(-c2ccc(CNCCOc3ccccn3)o2)c(Cl)c1,< 1
O=S(=O)(NCc1ccncc1O[C@H]1CCNC1)c1ccco1,67.2
Cc1cccc(C)c1NC(=O)C1(NC(=O)c2cc[nH]n2)CCCCC1,59.9
O=C(NCCCn1cccn1)c1c(OCC2CC2)cc(=O)n2c1CCCCC2,46.3
O=c1[nH]nc(CNS(=O)(=O)c2cc(Cl)sc2Cl)[nH]1,4.86
COc1ccc(-n2c(-c3ccc(OCCN(C)C)cc3)nn(Cc3ccccc3)c2=O)cc1,86.4
COC(=O)Cn1nc2c3c(C)c(C)sc3ncn2c1=O,0.329
COc1ccc(CC(=O)O)cc1Nc1ncc(Cl)c(Nc2ccccc2S(=O)(=O)C(C)C)n1,0.968

# Study 4
# Target: Macrophage-stimulating protein receptor (MST1R, Homo sapiens, UniProt Q04912)
# Chain of UniProt Q04912 (whole entry, looked up): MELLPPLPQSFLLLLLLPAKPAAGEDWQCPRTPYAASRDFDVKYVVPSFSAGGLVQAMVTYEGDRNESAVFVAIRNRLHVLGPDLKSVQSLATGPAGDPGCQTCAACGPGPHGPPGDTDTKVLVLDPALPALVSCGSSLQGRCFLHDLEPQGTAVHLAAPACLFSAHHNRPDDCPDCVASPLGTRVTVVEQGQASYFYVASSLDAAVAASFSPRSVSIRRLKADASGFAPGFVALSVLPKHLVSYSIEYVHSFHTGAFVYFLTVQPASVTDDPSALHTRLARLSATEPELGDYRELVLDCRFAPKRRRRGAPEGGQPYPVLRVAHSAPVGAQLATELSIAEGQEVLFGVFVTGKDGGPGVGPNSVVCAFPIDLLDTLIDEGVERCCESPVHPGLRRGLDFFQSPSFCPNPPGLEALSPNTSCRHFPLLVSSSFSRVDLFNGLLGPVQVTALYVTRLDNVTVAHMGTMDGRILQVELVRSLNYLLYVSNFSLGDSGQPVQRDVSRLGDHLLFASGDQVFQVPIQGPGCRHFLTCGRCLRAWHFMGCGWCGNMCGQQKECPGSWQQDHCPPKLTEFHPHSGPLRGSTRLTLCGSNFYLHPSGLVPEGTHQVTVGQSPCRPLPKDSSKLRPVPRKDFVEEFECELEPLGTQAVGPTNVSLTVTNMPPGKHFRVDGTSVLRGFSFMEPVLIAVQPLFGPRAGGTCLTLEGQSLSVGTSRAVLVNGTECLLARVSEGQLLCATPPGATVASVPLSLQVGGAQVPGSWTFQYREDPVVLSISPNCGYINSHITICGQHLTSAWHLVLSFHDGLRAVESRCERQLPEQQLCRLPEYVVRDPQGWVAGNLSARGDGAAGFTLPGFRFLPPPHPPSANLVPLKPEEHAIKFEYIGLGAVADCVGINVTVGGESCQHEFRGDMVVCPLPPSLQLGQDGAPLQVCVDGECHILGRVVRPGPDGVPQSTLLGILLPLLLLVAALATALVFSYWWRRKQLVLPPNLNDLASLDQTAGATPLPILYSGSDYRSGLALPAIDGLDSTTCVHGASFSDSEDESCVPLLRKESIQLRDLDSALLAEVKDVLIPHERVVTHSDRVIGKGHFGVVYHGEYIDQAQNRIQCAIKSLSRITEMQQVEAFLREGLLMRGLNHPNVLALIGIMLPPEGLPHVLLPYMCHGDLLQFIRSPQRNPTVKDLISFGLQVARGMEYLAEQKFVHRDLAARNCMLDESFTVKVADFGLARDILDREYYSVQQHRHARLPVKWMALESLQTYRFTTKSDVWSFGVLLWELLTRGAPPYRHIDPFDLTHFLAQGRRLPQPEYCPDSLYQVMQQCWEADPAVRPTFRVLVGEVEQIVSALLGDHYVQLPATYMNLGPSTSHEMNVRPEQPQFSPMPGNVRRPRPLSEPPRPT
# Observed: enzyme activity
# Mode: inhibitor
# Concentration: 0.5 µM
# Baseline: control
SMILES,remaining activity [%]
CN(C)c1ccc(C=C2C(=O)Nc3ccccc32)cc1,106
COc1ccc(C(=O)Nc2sc3c(c2C(N)=O)CCCC3)cc1OC,105
Cc1cccc(-c2[nH]c(C(C)(C)C)nc2-c2ccc3c(c2)OCO3)n1,101
Nc1[nH]nc2nc3ccccc3nc12,105
Cn1c2ccccc2c2c3c(c4c5ccccc5n(CCC#N)c4c21)CNC3=O,111
O=c1c2ccccc2[nH]c(=S)n1CCN1CCC(=C(c2ccc(F)cc2)c2ccc(F)cc2)CC1,103
COc1ccc(OC)c2c(=S)c3ccccc3[nH]c12,87.9
OCC(O)CCON=C1C(c2c(O)[nH]c3ccccc23)=Nc2ccccc21 (stereo not shown),101
Cc1ccc(Nc2nccc(N(C)c3ccc4c(C)n(C)nc4c3)n2)cc1S(N)(=O)=O,97.8
O=S(=O)(c1cccc2cnccc12)N1CCCNCC1,92.7
CO[C@H]1C[C@@H]2CC[C@@H](C)[C@@](O)(O2)C(=O)C(=O)N2CCCC[C@H]2C(=O)O[C@H]([C@H](C)C[C@@H]2CC[C@@H](O)[C@H](OC)C2)CC(=O)[C@H](C)/C=C(\C)[C@@H](O)[C@@H](OC)C(=O)[C@H](C)C[C@H](C)/C=C/C=C/C=C/1C,97
O=C1NC(=O)C(c2cn(CCCn3ccnc3)c3ccccc23)=C1Nc1ccccc1,93.5
C#Cc1cccc(Nc2ncnc3cc(OCCOC)c(OCCOC)cc23)c1,93.6
Cn1sc(=O)n(Cc2ccccc2)c1=O,101
Nc1ccc2ncnc(NCCc3ccc(Oc4ccccc4)cc3)c2c1,97.2
CNC(=O)c1cc(Oc2ccc(NC(=O)Nc3ccc(Cl)c(C(F)(F)F)c3)cc2)ccn1,97.6
O=C(O)c1ccc2c3c1cccc3c(=O)n1c3ccccc3nc21,100
CCOC(=O)c1c(C)[nH]c(/C=C2\C(=O)Nc3ccccc32)c1C,87.5
COc1ccc(CNC(=O)Nc2ncc([N+](=O)[O-])s2)cc1,98.4
